Published values collected from several papers.
Parts stem from different laboratories: compare values within a part only. Substitutions count along the parent as printed.

Sample 1 — technique: universal PBM; form: double-stranded DNA, one strand shown; medium: in vitro; tested at: not given; reading: higher = stronger binding
Target: Sal-like protein 4, full length isoform B (SALL4, Homo sapiens, UniProt Q9UJQ4-2, residues 1-616)
Setting: 8-mer, flanks averaged, mean of replicates
Sequence | E-score
CCTGACTC | -0.175
CGTACCCC | -0.221
GGACGGGA | -0.178
CAGGCCTC | -0.32
AACATGCG | 0.0153
GACGACCA | -0.0741
CCGTGTCC | -0.285
AAAAGTCC | -0.0586
ACCCAACG | -0.135
ACTAAAAC | 0.0949
GACCTATA | 0.251
ATCGTCAA | 0.157
AAGTTTAT | 0.305
CATCCTGA | -0.019
CGAGACGA | -0.256
ACGTCGCT | -0.13
GAACGGGC | -0.232
CCCGACAC | -0.286
AAGAAGTG | 0.0128
ACCTCGGG | -0.283
GAGCATAA | 0.165
ACTCCAAG | -0.0543
AAGCTCCT | -0.129
CGCGTACC | -0.238
AAGATGGC | 0.106

Sample 2 — technique: RNAcompete; form: RNA; medium: in vitro; tested at: 20 nM; setting: 7-mer, probes averaged, single round; relative to: mean of 7-mers; reading: higher = stronger binding
Target: PABPC1L2, full length, GST fusion (mouse, UniProt A0ABA7IW68)
Sequence | 7-mer Z-score
GUCUAGC | -0.195
AUUCGCC | -0.324
CGAUAAU | -0.115
GCUUCAA | -0.186
ACUGUGU | -0.0989
ACAAAAC | 2.76
AGUCGCA | -0.195
AAAUCCC | 0.249
UCCUUCG | -0.432
GCUUGGC | -0.05
UGGACGC | 0.0189
GAGAUUU | -0.0591
AAAGUUU | 0.635
CAGUAUU | -0.28
CGAUGCA | 0.0732
CCACGUU | -0.237

Sample 3 — technique: RNA Bind-n-Seq; form: RNA; medium: in vitro; tested at: not given; relative to: input RNA pool; reading: higher = stronger binding
Target: RING finger protein unkempt homolog, zinc fingers 1-6, GST-SBP tag (UNK, Homo sapiens, UniProt Q9C0B0, residues 30-357)
Setting: RNA with constant flanks, human-mouse chimeric sites, ends assumed
Shared flanks, not repeated: GGGAGUUCUACAGUCCGACGAUC … CAACAGAGGAUUGAGCAUCA
Residues (chain): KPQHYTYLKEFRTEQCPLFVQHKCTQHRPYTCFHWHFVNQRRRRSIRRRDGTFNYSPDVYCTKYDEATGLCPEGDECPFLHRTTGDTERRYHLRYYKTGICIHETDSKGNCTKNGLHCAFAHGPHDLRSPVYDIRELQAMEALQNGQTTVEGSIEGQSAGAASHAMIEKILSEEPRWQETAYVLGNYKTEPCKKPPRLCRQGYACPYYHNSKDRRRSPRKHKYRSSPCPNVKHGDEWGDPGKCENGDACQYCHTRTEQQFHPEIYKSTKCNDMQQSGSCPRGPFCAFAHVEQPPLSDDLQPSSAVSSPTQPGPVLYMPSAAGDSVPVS
Sequence | bound/input enrichment
AGGAGGAGAUUAAAGGGUGAGAGUGGGGUGGAAGACUGUGUCAUGGCUCUGGAGACACUGUUCAGUGUCCUGCUUUCUCUGUGCAGACUUAUGGCUCCUUACACGCCCUUUCUGACUGAG | 0.0624 ratio
UCUGGUCACACUCGUGUAUAUGGUGUGUGCUUUGUGGACACUUCACUGGGCAAGUUUUUCAUCGGCCAGUUUUCGGAUGACCGCCACUGUUCCAGAUUUAGGACUCUAGUGGCUCACUAU | 0.184 ratio
GAGCCCAGCCGGCAGUUUGUAAAGGACUCAAUUCGGCUGGUUAAAAGAUGCACCAAACCCGACAGAAAAGAAUUCCAGAAGAUUGCCAUGGCUACAGCAAUAGGAUUUGCUAUAAUGGGA | 0.255 ratio
AGAAAGCAAAACUUGGAACGAUUUAAGAAAGGAGACGUAAGAUUCUUGAUUUGCACAGAUGUAGCUGCUAGAGGGAUUGAUAUCCACGGCGUUCCUUAUGUUAUAAACGUCACCCUGCCU | 0.19 ratio
UACUCAACUUUCUUGCCACAUUUUGAAUUCCAAGACAUUAUUCCUCCAGAUGACUUCCUAACUAGUGAUGAAGAAGUAGAUUUGGUUUUAUUUGGAACUAUGAGAGGACAAGUUGUUGGA | 1 ratio
AUGGAACAUUUCGAUGCGUCACUCAGUACCUAUUUCAAGGCAUUGCUGGGCCCCCGAGAUACAAGAGUCAAAGGAUGGUUCCUCCUGGACAAUUACAUACCCACAUUUGUCUGUUCUGUU | 0.0787 ratio
GAAUCCUACUCAGGCGGAUUUUGCAACACCAAGCUCACAGCAGCAGCAUCUUAGUCACAGUAGGGUAGUUUUGGGGCUCUGUGGCCAUGGUUUUACUCACAUGCAGGUUUGGAAAAUGUA | 1.03 ratio
GCAAAGGAUGAUGAGGCGGCAGCUGUUGCACUUUCCUCUCUCGUUCAUGCUUUGGAUGAGUUAAACAUGGUCGCCAUCGUCCGAUAUGCUUAUGACAAAAGAGCUAAUCCUCAAGUUGGU | 0.138 ratio
GGCUGCUACUAUUCUCCCUGGAGUGGCCGUGUCACCGGCCGGAGCGCGGCCAGACUAAUUUUAGAAAAUGCCAAGUAGGAAGUUUGUUGAGGGUGAAGUGGUCAGAGGCCGAUGGCCUGG | 9.62 ratio
CUGUGACUGAUGGCAGCUACCUGAGUGGCAGCUGAAGUUGACUCCCUCUCCUUGCCUGAACCCCCCCCCACUGCCCCUUGAGUCCACAGUGUCGGCUGAGAUGUUGCCUCUGCACGGUUC | 0.509 ratio
GUUGCCAGCUUCCGGUUGGCCUCCAUCCGGUUCUCUCCUGAGCUACGUGUCUCUACGUUUUAGGUGUGCCAUCCAACAAACAUGGAUCAGGUAAUGCAGUUUGUGGAGCCCAGCCGGCAG | 0.138 ratio

Sample 4 — technique: RNA Bind-n-Seq; form: RNA; medium: in vitro; tested at: 365 nM; relative to: no-protein control; reading: higher = stronger binding
Target: RNA binding protein fox-1 homolog 2, RRM domain, GST-SBP tag (RBFOX2, Homo sapiens, UniProt O43251-10, residues 100-194)
Setting: natural RNA segment, single round, ends assumed
Shared flanks, not repeated: GGGAGUUCUACAGUCCGACGAUC … UGGAAUUCUCGGGUGCCAA
Construct (chain): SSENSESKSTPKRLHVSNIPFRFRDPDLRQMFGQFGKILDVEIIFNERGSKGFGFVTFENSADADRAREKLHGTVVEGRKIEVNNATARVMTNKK
Sequence | RBNS enrichment (R)
AAACUGUUCUCAGGACCUUGGGCUCUGGGCAGUCUGUCAGUACCAAGCCUUUAUGCCUAUGAGAACUCCAUAGCUGGGUCUCACCACUAAUAAACAGACCUGCACCUCUG | 0.311
AGCGGUCUCCAUUUCCCAGGCUCCUCUGGGGUCUCUGCCUCUGGCCGUGUGUCAAGGAGAUGCCCACUGGGGCUCCAACCGUCUUCAGACACUGUGGAAGUGGGAGGGUA | 0.317
UUCUUCUUAACUUUACUUCUCUUUUUGUCCCCCCCCCAUCUUACAGAAGUUGAGGCCAAGGGAGAAUGGUAGGCACAGAAGAAACAUGGCAAACUGCUCUGUGCUUUCAA | 0.999
UGAGAUCAUGUUUACAGACCUGUUUUGUCAUCCUGCUGCCAAGAAGUUUUUUAAUCACUUGAAUAAAUUGAUAUAAUAAAAGGAGCCACCAGGUGGUGUGUGGAUUCUGA | 0.287
CACGGUAGGAACAUAGCGUGUUUAUAUUUUAUGGCCAAACUAUUUUGAAUUUUGUUGUCCGGCCCUCAGUGCCCUGCCCUCUCCCUUACCAGGACCACAGCUCUGUUCCU | 0.506
UGUCCUGUGCAGAGGUGGAGGGCAGCUGUCUACAGGCUUCCUAGAGGUCACAUGCAGGACUGGGGUGGCCACUUGGCAGAGUCCUUGGGGUUCAGACCUCCACAGGCUAG | 0.47
GGGAGACCACAGGACAUGCCCAAGGCAAAGAGUUGGUAGUCCCUGGAUUUGGGAAUCAAACUCAAGCCCAUCUAAUCCAAGGGUAGGAAAUGUCUCUAAAACGUUGAUCA | 0.203
GCUGAUCAGAUCUCUCCAUAUCCUCUCUUGCCAGCUUUUUCCCGUGCUCCCCCAACUAUGUAUCAGAUAAGAUUCUUUGAUCCCGACUCUGUGUGUGCGAGCACGCGUGU | 0.782
UUAAAAUUACUGCCUAGAACUUUGAGAAGAGAAAAAUUCAGGGAUAAGUUGAAAGGCACUGGAACUGUUCAUGUCCAUACCAGACCGGUAAAUUAUAAGAUCCAGAUGUU | 0.473
CCCUGCGUCUUCAUUUCCGUGUGUGUGCAACUGCUCCGCUCCAAGAACUGCACCGCUGUCUUGUGAGCAUGGCGUGAACAGGCUGUUUUGCUCCAGCCACUUUUCUUGUA | 1.18
CCCUUCUCCCACUUGCCUACCCUCAAUGCCACACUGUUUUUGAAGUGGCCCAUAACUUGAAGGAAAAGUUUAAAGACAGUUCAAUUUAAUCAUCAGAAUGCAUUCUUUUU | 5.06
UGCUGUCUUGCAGUUUUACCCCUGUCCACUCUCUGCCAUCCAGAAGCAAGCGUUGGUCAGUGUUGUGUCCCAGUAGCUGGGAAGGGCACGGCUUUGCCCUGAUCUGUUCU | 0.244

Sample 5 — technique: protein binding microarray; form: double-stranded DNA, one strand shown; medium: in vitro; tested at: not given; relative to: not given; reading: higher = stronger binding
Target: Histone acetyltransferase KAT6A, both winged helices, GST fusion (KAT6A, Homo sapiens, UniProt Q92794, residues 1-181)
Setting: 8-mer, flanks averaged, mean of 2 arrays, mostly near background
Residues (chain): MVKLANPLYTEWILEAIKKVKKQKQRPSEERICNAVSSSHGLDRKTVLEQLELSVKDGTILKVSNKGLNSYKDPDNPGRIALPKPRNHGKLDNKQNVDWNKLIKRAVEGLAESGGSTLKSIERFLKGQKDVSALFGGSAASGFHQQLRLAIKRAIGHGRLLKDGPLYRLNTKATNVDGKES
Sequence | E-score
CGCAGAGA | 0.135
GATGAGCC | -0.0673
TATACCCA | -0.0808
AAAAGCGT | 0.0788
GCGATCGA | 0.0795
AGAAGGTC | -0.0836
ATCCGTGA | 0.211
AATATATG | 0.0273
GACGACTC | -0.0188
GCGATCCA | -0.0334
CGAGCAGC | 0.0377
TATGCACA | -0.212
AAGATGTG | -0.272
ACTATAGC | 0.0906
CACATATA | -0.0687
GATGCGAC | 0.271
CAGTATAC | -0.066
ATCCCAGG | -0.221
CTGCAGAA | -0.054
CCCCAATA | -0.212
GGGTCTGA | 0.00081
AATGCCCG | 0.159
AAAACTCA | -0.163
GTGTTATA | -0.0657
ACCATCTC | -0.115

Sample 6 — target: CCNB3, cyclin fold, Cln2 fusion (human); technique: yeast growth competition, sequencing; medium: yeast; setting: weak parent motif; relative to: not given; reading: higher = stronger binding
Parent: SAMHD1 docking peptide (human); ASKSRVQLFKDDP
Substitution | normalised enrichment score
R5F | -0.0342
K10H | -0.0458
K10Q | -0.187
V6P | -0.597
D12P | 0.0508
R5T | -0.247
D12E | 0.189
V6N | -0.0433
K3F | 0.213
L8S | 0.0881
S4T | 0.122
V6T | -0.0562
D11N | 0.115
V6H | -0.293
R5P | -0.425
L8D | -0.0528
K10A | -0.122
D11T | 0.492
S4M | 0.00536
K10P | -0.3

For quick reference, copied from above (sample 6):
Substitution | normalised enrichment score
D12P | 0.0508
R5P | -0.425
S4T | 0.122
K10A | -0.122
D11T | 0.492
V6N | -0.0433
R5T | -0.247
L8S | 0.0881
D11N | 0.115
V6P | -0.597
K10H | -0.0458
K3F | 0.213
